Assay results pooled from the literature.
Compare with care: the assays were run in different laboratories. Numbers after ± are the reported error.
Target: Cytochrome P450 2C9 (CYP2C9, Homo sapiens, UniProt P11712)
UniProt P11712, sequence (whole entry, looked up): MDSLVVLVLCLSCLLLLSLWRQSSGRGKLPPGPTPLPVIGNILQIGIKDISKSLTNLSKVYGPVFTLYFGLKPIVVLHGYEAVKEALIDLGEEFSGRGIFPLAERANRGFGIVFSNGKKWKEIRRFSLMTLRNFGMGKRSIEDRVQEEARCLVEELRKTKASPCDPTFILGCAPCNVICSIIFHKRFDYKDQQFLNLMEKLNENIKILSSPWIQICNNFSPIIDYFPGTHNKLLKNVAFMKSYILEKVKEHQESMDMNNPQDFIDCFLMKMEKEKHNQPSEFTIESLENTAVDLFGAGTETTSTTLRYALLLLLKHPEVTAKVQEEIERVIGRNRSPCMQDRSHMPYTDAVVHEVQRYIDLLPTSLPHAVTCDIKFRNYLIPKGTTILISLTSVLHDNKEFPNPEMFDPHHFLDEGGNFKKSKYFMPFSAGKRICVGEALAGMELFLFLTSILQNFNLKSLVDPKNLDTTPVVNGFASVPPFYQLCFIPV

S=C=NCCc1ccccc1 — inhibition (enzyme activity; human liver microsomes; concentration not given, together with: tolbutamide): ~58%
O=C/C=C/c1ccccc1 — IC50 (inhibitor): 43.3 µg/mL
O=C1Cc2cc(CCN3CCN(c4nsc5ccccc45)CC3)c(Cl)cc2N1 — inhibition (inhibitor; human liver microsomes; 10 µM, pH 7.4, together with: diclofenac): 1%
CS(=O)(=O)Nc1ncn(-c2cc(F)c(COc3ccc(OS(=O)(=O)F)cc3)c(F)c2)n1 — IC50: > 50 µM
Cn1nccc1[C@]1(CNC(=O)c2ccc(F)c(F)c2-c2ccc(C(F)(F)F)cc2)NC(=O)NC1=O — IC50 (human liver microsomes; together with: diclofenac; no inhibition up to value): > 20 µM
CCC[S+]([O-])c1ccc2[nH]c(NC(=O)OC)nc2c1 (stereo not drawn) — inhibition (inhibitor; human liver microsomes; 10 µM, pH 7.4, together with: diclofenac): 9%
Cc1cc(C)nc(Nc2ncc(C(=O)NCCc3c(C)[nH]c4ccccc34)cn2)c1 — fraction metabolised (recombinant enzyme phenotyping; 1 µM, 30 min): 2.1%
N#Cc1ccc([C@H]2CCc3cncn32)c(F)c1 — Ki (inhibitor): 20 µM
CC(C)CC(=O)OC[C@H]1O[C@@](C#N)(c2ccc3c(N)ncnn23)[C@H](O)[C@@H]1O — remaining compound (metabolic stability; recombinant enzyme; 1 µM, 30 min): 98.2 ± 2%

For quick reference, copied from above:
O=C/C=C/c1ccccc1 — IC50 (inhibitor): 43.3 µg/mL
